Measurements pooled from the literature.
Every numbered part comes from another study and shows a few of its results, in no order.

Set 1
Compound: O=c1cc(-c2cccc3c2Sc2ccccc2S3)oc(N2CCOCC2)c1
Effect on: enzyme activity
Action: inhibitor
Tested at: 0.5 µM
Reference: control
The remaining activity was 88.1% (Ribosomal protein S6 kinase alpha-4 (RPS6KA4, Homo sapiens, UniProt O75676)).
The remaining activity was 106% (Tyrosine-protein kinase TXK (TXK, Homo sapiens, UniProt P42681)).
Calcium/calmodulin-dependent protein kinase type IV (CAMK4, Homo sapiens, UniProt Q16566) — remaining activity: 94%.
It gave 102% for remaining activity (Serine/threonine-protein kinase Nek3 (NEK3, Homo sapiens, UniProt P51956)).
It gave 101% for remaining activity (Dual specificity protein kinase CLK4 (CLK4, Homo sapiens, UniProt Q9HAZ1)).
Rho-associated protein kinase 1 (ROCK1, Homo sapiens, UniProt Q13464) — remaining activity: 101%.
The remaining activity was 100% (Mitogen-activated protein kinase 1 (MAPK1, Homo sapiens, UniProt P28482)).
Serine/threonine-protein kinase MARK2 (MARK2, Homo sapiens, UniProt Q7KZI7) — remaining activity: 86.3%.
The remaining activity was 99.2% (Discoidin domain-containing receptor 2 (DDR2, Homo sapiens, UniProt Q16832)).
It gave 99.3% for remaining activity (Mitogen-activated protein kinase 14 (MAPK14, Homo sapiens, UniProt Q16539)).
It gave 109% for remaining activity (Cyclin-dependent kinase 9, with cyclin K (CDK9, Homo sapiens, UniProt P50750)).
Hepatocyte growth factor receptor (MET, Homo sapiens, UniProt P08581) — remaining activity: 107%.
Calcium/calmodulin-dependent protein kinase type 1B (PNCK, Homo sapiens, UniProt Q6P2M8) — remaining activity: 109%.
Dual specificity mitogen-activated protein kinase kinase 1 (MAP2K1, Homo sapiens, UniProt Q02750) — remaining activity: 94.9%.
It gave 100% for remaining activity (MAP/microtubule affinity-regulating kinase 4 (MARK4, Homo sapiens, UniProt Q96L34)).
For Serine/threonine-protein kinase PLK3 (PLK3, Homo sapiens, UniProt Q9H4B4): remaining activity read 98.1%.
It gave 100% for remaining activity (Misshapen-like kinase 1 (MINK1, Homo sapiens, UniProt Q8N4C8)).
Dual specificity protein kinase CLK3 (CLK3, Homo sapiens, UniProt P49761) — remaining activity: 121%.
For Cyclin-dependent kinase 1, with cyclin A (CDK1, Homo sapiens, UniProt P06493): remaining activity read 104%.
The remaining activity was 95.9% (Vascular endothelial growth factor receptor 2 (KDR, Homo sapiens, UniProt P35968)).
For Serine/threonine-protein kinase PAK 3 (PAK3, Homo sapiens, UniProt O75914): remaining activity read 95%.
For G protein-coupled receptor kinase 4 (GRK4, Homo sapiens, UniProt P32298): remaining activity read 105%.
The remaining activity was 96% (RAC-beta serine/threonine-protein kinase (AKT2, Homo sapiens, UniProt P31751)).
For Serine/threonine-protein kinase DCLK2 (DCLK2, Homo sapiens, UniProt Q8N568): remaining activity read 106%.

Set 2
Target: Calcium/calmodulin-dependent protein kinase type II subunit alpha (CAMK2A, Homo sapiens, UniProt Q9UQM7)
Effect on: enzyme activity
Action: inhibitor
Tested at: 10 µM
With `C=C1[C@@H]2CC[C@@H]3[C@](C2)(C(=O)[C@@H](O)[C@@H]2C(C)(C)[C@H]4CC(=O)[C@@]32CO4)[C@@H]1OC(C)=O` the inhibition was -12%.
With `Nc1ccn(C[C@@H](CO)OCP(=O)(O)O)c(=O)n1` the inhibition was -12%.
The inhibition of `CC(C)C(=O)OCC(=O)[C@@]12O[C@H](C3CCCCC3)O[C@@H]1C[C@H]1[C@@H]3CCC4=CC(=O)C=C[C@]4(C)[C@H]3[C@@H](O)C[C@@]12C` is reported as 3%.
The inhibition of `CCOC(=O)c1ncn2c1CN(C)C(=O)c1cc(F)ccc1-2` is reported as -7%.
For `C=C1C(=O)O[C@@]23[C@H]1CC[C@@H](C)[C@@H]2CC[C@@]1(C)O[C@@H]31`, the inhibition was 39%.
`CC(C)=CCc1cc2c(cc1O)O[C@H](c1ccc(O)cc1)CC2=O` has an inhibition of -9%.
For `Cc1cn([C@H]2C=C[C@@H](CO)O2)c(=O)[nH]c1=O`, the inhibition was -8%.
`COC(=O)c1ccccc1O[C@@H]1O[C@H](CO[C@@H]2OC[C@@H](O)[C@H](O)[C@H]2O)[C@@H](O)[C@H](O)[C@H]1O` gave an inhibition of -2%.
The inhibition of `NS(=O)(=O)Cc1noc2ccccc12` is reported as -5%.
For `CC[N+](CC)(CC)CCOc1cccc(OCC[N+](CC)(CC)CC)c1OCC[N+](CC)(CC)CC`, the inhibition was -7%.
`O=C(Nc1ccc(Cl)cc1)Nc1ccc(Cl)c(Cl)c1` has an inhibition of -11%.

Set 3
Compound: CO[C@@H]1[C@H](N(C)C(=O)c2ccccc2)C[C@H]2O[C@]1(C)n1c3ccccc3c3c4c(c5c6ccccc6n2c5c31)C(=O)NC4
Effect on: enzyme activity
Action: inhibitor
Tested at: 1 µM
For Serine/threonine-protein kinase 16 (STK16, Homo sapiens, UniProt O75716): inhibition read 69%.
The inhibition was 20% (Serine/threonine-protein kinase Nek11 (NEK11, Homo sapiens, UniProt Q8NG66)).
The inhibition was 0% (Ephrin type-B receptor 3 (EPHB3, Homo sapiens, UniProt P54753)).
It gave 1% for inhibition (Tyrosine-protein kinase Fer (FER, Homo sapiens, UniProt P16591)).
The inhibition was 27% (Tyrosine-protein kinase Srms (SRMS, Homo sapiens, UniProt Q9H3Y6)).
For Macrophage colony-stimulating factor 1 receptor, autoinhibited (CSF1R, Homo sapiens, UniProt P07333): inhibition read 89%.
For Cyclin-dependent kinase-like 2 (CDKL2, Homo sapiens, UniProt Q92772): inhibition read 4%.
The inhibition was 12% (Phosphatidylinositol 4,5-bisphosphate 3-kinase catalytic subunit beta isoform (PIK3CB, Homo sapiens, UniProt P42338)).
It gave 23% for inhibition (Microtubule-associated serine/threonine-protein kinase 1 (MAST1, Homo sapiens, UniProt Q9Y2H9)).
It gave 24% for inhibition (MAP kinase-activated protein kinase 5 (MAPKAPK5, Homo sapiens, UniProt Q8IW41)).
It gave 0% for inhibition (Dual specificity mitogen-activated protein kinase kinase 4 (MAP2K4, Homo sapiens, UniProt P45985)).
Serine/threonine-protein kinase/endoribonuclease IRE1 (ERN1, Homo sapiens, UniProt O75460) — inhibition: 14%.
It gave 56% for inhibition (Fibroblast growth factor receptor 1 (FGFR1, Homo sapiens, UniProt P11362)).
The inhibition was 11% (Receptor tyrosine-protein kinase erbB-3 (ERBB3, Homo sapiens, UniProt P21860)).

Set 4
SMILES: CN(C)C(=O)Cn1cc(-c2nc([C@@](C)(c3ccc(-c4cnc(N)nc4)cc3)C3CC3)no2)cn1
Tested at: 1 µM
It gave 94% for remaining binding (Wee1-like protein kinase (WEE1, Homo sapiens, UniProt P30291); cell-free assay, competition with immobilised ligand).
It gave 75% for remaining binding (Non-receptor tyrosine-protein kinase TYK2, JH1 (TYK2, Homo sapiens, UniProt P29597); cell-free assay, competition with immobilised ligand).
It gave 100% for remaining binding (Epidermal growth factor receptor (EGFR, Homo sapiens, UniProt P00533, T790M); cell-free assay, competition with immobilised ligand).
It gave 100% for remaining binding (Dual specificity protein kinase TTK (TTK, Homo sapiens, UniProt P33981); cell-free assay, competition with immobilised ligand).
For Mitogen-activated protein kinase 11 (MAPK11, Homo sapiens, UniProt Q15759); cell-free assay, competition with immobilised ligand: remaining binding read 97%.
The remaining binding was 100% (BMP-2-inducible protein kinase (BMP2K, Homo sapiens, UniProt Q9NSY1); cell-free assay, competition with immobilised ligand).
For Serine/threonine-protein kinase SBK1 (SBK1, Homo sapiens, UniProt Q52WX2); cell-free assay, competition with immobilised ligand: remaining binding read 87%.
It gave 100% for remaining binding (Epidermal growth factor receptor (EGFR, Homo sapiens, UniProt P00533, L858R); cell-free assay, competition with immobilised ligand).
Receptor-type tyrosine-protein kinase FLT3 (FLT3, Homo sapiens, UniProt P36888, D835H); cell-free assay, competition with immobilised ligand — remaining binding: 86%.
Proto-oncogene tyrosine-protein kinase Src (SRC, Homo sapiens, UniProt P12931); cell-free assay, competition with immobilised ligand — remaining binding: 90%.
Tyrosine-protein kinase ABL1, non-phosphorylated (ABL1, Homo sapiens, UniProt P00519, F317L); cell-free assay, competition with immobilised ligand — remaining binding: 66%.
For Epidermal growth factor receptor (EGFR, Homo sapiens, UniProt P00533, del747-750/T751S); cell-free assay, competition with immobilised ligand: remaining binding read 100%.
For Receptor-type tyrosine-protein kinase FLT3, autoinhibited (FLT3, Homo sapiens, UniProt P36888); cell-free assay, competition with immobilised ligand: remaining binding read 82%.
For Serine/threonine-protein kinase TAO3 (TAOK3, Homo sapiens, UniProt Q9H2K8); cell-free assay, competition with immobilised ligand: remaining binding read 89%.
Serine/threonine-protein kinase D3 (PRKD3, Homo sapiens, UniProt O94806); cell-free assay, competition with immobilised ligand — remaining binding: 100%.
It gave 96% for remaining binding (Casein kinase I isoform delta (CSNK1D, Homo sapiens, UniProt P48730); cell-free assay, competition with immobilised ligand).
It gave 84% for remaining binding (RAC-beta serine/threonine-protein kinase (AKT2, Homo sapiens, UniProt P31751); cell-free assay, competition with immobilised ligand).
Inhibitor of nuclear factor kappa-B kinase subunit alpha (CHUK, Homo sapiens, UniProt O15111); cell-free assay, competition with immobilised ligand — remaining binding: 0%.
The remaining binding was 85% (LIM domain kinase 2 (LIMK2, Homo sapiens, UniProt P53671); cell-free assay, competition with immobilised ligand).
For Myosin light chain kinase family member 4 (MYLK4, Homo sapiens, UniProt Q86YV6); cell-free assay, competition with immobilised ligand: remaining binding read 100%.
For Ephrin type-A receptor 8 (EPHA8, Homo sapiens, UniProt P29322); cell-free assay, competition with immobilised ligand: remaining binding read 100%.
It gave 100% for remaining binding (AP2-associated protein kinase 1 (AAK1, Homo sapiens, UniProt Q2M2I8); binding).
Cyclin-dependent kinase 19 (CDK19, Homo sapiens, UniProt Q9BWU1); competition binding — remaining binding: 100%.
For Ribosomal protein S6 kinase alpha-6, C-terminal kinase domain (RPS6KA6, Homo sapiens, UniProt Q9UK32); cell-free assay, competition with immobilised ligand: remaining binding read 100%.
For Bone morphogenetic protein receptor type-1B (BMPR1B, Homo sapiens, UniProt O00238); cell-free assay, competition with immobilised ligand: remaining binding read 76%.

For quick reference, copied from above (set 1):
The remaining activity was 96% (RAC-beta serine/threonine-protein kinase (AKT2, Homo sapiens, UniProt P31751)).
The remaining activity was 99.2% (Discoidin domain-containing receptor 2 (DDR2, Homo sapiens, UniProt Q16832)).
The remaining activity was 95.9% (Vascular endothelial growth factor receptor 2 (KDR, Homo sapiens, UniProt P35968)).
The remaining activity was 88.1% (Ribosomal protein S6 kinase alpha-4 (RPS6KA4, Homo sapiens, UniProt O75676)).
Hepatocyte growth factor receptor (MET, Homo sapiens, UniProt P08581) — remaining activity: 107%.
For G protein-coupled receptor kinase 4 (GRK4, Homo sapiens, UniProt P32298): remaining activity read 105%.
